Measurements gathered from unrelated publications.
Numbered parts are unrelated; each lists some results of a single study. Changes are numbered by the printed parent chain.

Study 1
Target: CCNE1, cyclin fold, Cln2 fusion (human)
Method: yeast growth competition, sequencing
Medium: yeast
Setting: strong parent motif
Relative to: not given
Direction: higher = stronger binding
Starting sequence: TICRR docking peptide (human); TKVRRNLFNQELL
Variant	normalised enrichment score
TKVRRNLFAQELL [N9A]	1.93
TKVRRALFNQELL [N6A]	1.68
TKVRRNLFNQALL [E11A]	1.44
TKVRKNLFNQELL [R5K]	0.116
TKVRANLFNQELL [R5A]	1.61
TKVRANAFNQELL [R5A L7A]	-0.234
TKVRKNLLNQELL [R5K F8L]	0.391
TAVRRNLFNQELL [K2A]	2.26
TKVRRNAFNQELL [L7A]	-0.118
AKVRRNLFNQELL [T1A]	1.62

Study 2
Target: Histone acetyltransferase KAT6A, winged helix 1, GST fusion (KAT6A, Homo sapiens, UniProt Q92794, residues 1-85)
Method: protein binding microarray
Form: double-stranded DNA, one strand shown
Medium: in vitro
Tested at: not given
Setting: 8-mer, flanks averaged, mean of 2 arrays, mostly near background
Relative to: not given
Direction: higher = stronger binding
Residues (chain): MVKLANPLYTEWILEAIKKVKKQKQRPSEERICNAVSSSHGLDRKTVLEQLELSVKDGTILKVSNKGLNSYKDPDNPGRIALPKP
Sequence	E-score
ACGTAGGA	-0.159
ACGTTTCA	-0.107
GTGATCTA	-0.141
TGATTGCA	-0.294
ATTGAGAC	-0.0214
CGAGGTCA	-0.108
AAACTCAG	-0.249
AACGTCGC	0.0965
CTATCGGC	0.274
ATAGTTCG	-0.124
AGGATTTG	-0.239
GTTTCTAA	0.0763
CATTAGGA	-0.0717
CGTGCACG	0.155
AATTTCAA	-0.237
AAGGGAGT	-0.152
GACTGATA	-0.158
AATGCCGA	0.257
ACGGTGAG	0.161
CAGCAACG	-0.0986
ACTACGAC	-0.122
ATAATACG	0.0448
ATTCGACC	-0.136
ATCGTCGA	-0.0339
ACTCTTAA	-0.226

Study 3
Target: MAFK, bZIP domain (human)
Method: DHFR protein complementation
Medium: yeast
Setting: single substitutions, most at no-binding floor
Relative to: wild-type JUN-FOS pair
Direction: higher = stronger binding
Starting sequence: JUN, bZIP domain (human); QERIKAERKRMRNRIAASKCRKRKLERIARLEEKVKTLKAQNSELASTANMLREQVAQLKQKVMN; partner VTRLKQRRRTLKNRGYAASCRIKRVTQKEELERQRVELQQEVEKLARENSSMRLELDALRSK
Variant	binding fitness
A40L	-1.5 natural log
A49F	-1.51 natural log
I28T	-1.51 natural log
L31P	-1.47 natural log
E54M	-1.24 natural log
S43M	-1.47 natural log
N42A	-1.36 natural log
Q41M	-1.44 natural log
I28S	-1.55 natural log
E54Q	-1.41 natural log
R30E	-1.52 natural log
L31F	-1.53 natural log
R30H	-1.49 natural log
K36L	-1.5 natural log
L52E	-1.53 natural log
T48D	-1.56 natural log
T37G	-1.42 natural log
E44V	-1.48 natural log
S47N	-1.42 natural log
N42L	-1.35 natural log
T37D	-1.52 natural log

Study 4
Target: Prothrombin, mature alpha-thrombin (F2, Homo sapiens, UniProt P00734)
Method: aptamer microarray, sandwich
Form: DNA with 2'F-ANA
Medium: in vitro
Tested at: 200 nM
Setting: whole 15-mer aptamer, many near background
Added: Cy3 exosite-II aptamer, 400 nM
Direction: higher = stronger binding
Sequence: GGTTGGTGTGGTTGG
Modification	mean fluorescence intensity
2'F-ANA at 3 5 6 7 8 9 13 15	187 a.u.
2'F-ANA at 2 3 5 7 9 13	82 a.u.
2'F-ANA at 1 2 3 4 5 6 8 11 13	48.6 a.u.
2'F-ANA at 1 4 5 6 10 11 12 15	51.5 a.u.
2'F-ANA at 2 4 7 8 11 12 13 15	371 a.u.
2'F-ANA at 1 3 4 9 10 11 12 14 15	52.2 a.u.
2'F-ANA at 6 7 11 12 15	530 a.u.
2'F-ANA at 2 4 8 9 11 13 14 15	75.7 a.u.
2'F-ANA at 1 3 4 5 8 9 14 15	46.4 a.u.
2'F-ANA at 2 9 11 15	519 a.u.
2'F-ANA at 4 7 8 9 10 11 12 15	99.6 a.u.
2'F-ANA at 1 4 6 7 9 14	63.3 a.u.
2'F-ANA at 2 4 5 7 10 12 15	49.1 a.u.
2'F-ANA at 1 4 5 7 8 9	66.7 a.u.
2'F-ANA at 1 3 6 7 8 9 10 11 14	61.5 a.u.
2'F-ANA at 2 3 7 9	809 a.u.
2'F-ANA at 1 2 3 5 7 9 11 14	53.8 a.u.
2'F-ANA at 6 9 12 13 14	183 a.u.
2'F-ANA at 1 2 5 8 10 11 13 14	47.5 a.u.
2'F-ANA at 2 4 5 10 13	46.5 a.u.
2'F-ANA at 3 4 6 8 10 11 12 13	210 a.u.
2'F-ANA at 4 5 7 9 11 13 14	56.1 a.u.
2'F-ANA at 4 7 13 14 15	120 a.u.
2'F-ANA at 1 2 5 8 13 14 15	47.1 a.u.
2'F-ANA at 1 3 5 6 7 8 9 13	52.7 a.u.

Study 5
Target: ABI1, truncated, D143A, DHFR fusion (Arabidopsis thaliana)
Method: DHFR PCA, deep sequencing
Medium: yeast
Setting: methotrexate growth selection, single substitutions
Added: (+)-ABA 4.8 µM
Relative to: wild-type fitted maximum
Direction: higher = stronger binding
Starting sequence: PYL1, truncated, DHFR fusion (Arabidopsis thaliana); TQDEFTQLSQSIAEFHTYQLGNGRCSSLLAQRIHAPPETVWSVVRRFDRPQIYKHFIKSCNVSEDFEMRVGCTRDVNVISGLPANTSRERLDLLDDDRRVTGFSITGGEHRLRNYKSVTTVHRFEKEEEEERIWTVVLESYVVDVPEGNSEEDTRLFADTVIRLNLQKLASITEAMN; partner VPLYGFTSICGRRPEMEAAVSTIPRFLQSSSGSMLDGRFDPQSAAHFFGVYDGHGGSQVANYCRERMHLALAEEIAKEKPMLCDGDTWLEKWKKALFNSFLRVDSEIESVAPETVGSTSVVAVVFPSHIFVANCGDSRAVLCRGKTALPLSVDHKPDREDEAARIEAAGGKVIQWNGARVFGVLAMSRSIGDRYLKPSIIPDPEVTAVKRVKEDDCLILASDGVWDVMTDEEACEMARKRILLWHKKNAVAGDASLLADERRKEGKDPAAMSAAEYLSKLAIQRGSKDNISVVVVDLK
Variant	relative binding score [%]
T17V	31.5
S11D	74.3
R123Q	81.4
R32P	41.3
K54S	-2.67
P36E	60.7
E109M	27.8
F157T	-2.28
F157Q	-2.98
F103A	-7.92
S171K	91.8
Y115W	2.38
V43K	2.73
S9T	68.4
R99N	28.3
Q2I	78.2
R99T	-5.9
A175H	69.5
S140T	7.12
R163C	19.1
D97C	54.3
S140Y	9.6
G71V	-6.74
S140R	4.77
C25W	-10.5

Study 6
Target: Interferon regulatory factor 7, full length, phosphomimetic (IRF7, Homo sapiens, UniProt Q92985, residues 1-503, S101K/S471D/S472D/S475D/S476D/S477D/S483D/S484D/S487D)
UniProt Q92985, sequence (whole entry, unmodified, looked up): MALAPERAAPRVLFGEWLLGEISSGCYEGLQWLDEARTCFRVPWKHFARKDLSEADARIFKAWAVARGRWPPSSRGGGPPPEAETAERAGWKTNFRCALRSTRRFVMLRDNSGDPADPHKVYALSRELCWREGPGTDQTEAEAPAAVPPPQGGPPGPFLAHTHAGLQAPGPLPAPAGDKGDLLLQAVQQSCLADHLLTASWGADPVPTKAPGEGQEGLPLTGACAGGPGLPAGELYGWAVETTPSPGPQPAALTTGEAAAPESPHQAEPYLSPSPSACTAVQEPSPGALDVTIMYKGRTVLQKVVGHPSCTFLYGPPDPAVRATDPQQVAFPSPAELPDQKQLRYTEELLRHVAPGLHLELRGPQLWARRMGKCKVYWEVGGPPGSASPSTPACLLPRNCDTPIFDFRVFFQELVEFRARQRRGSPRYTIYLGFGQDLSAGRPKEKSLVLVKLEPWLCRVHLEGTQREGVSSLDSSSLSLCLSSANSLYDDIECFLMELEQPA
Method: protein-binding microarray
Form: double-stranded DNA, one strand shown
Medium: in vitro
Tested at: 250 nM
Setting: 60-bp whole probe
Added: salmon DNA 0.4 mg/ml
Relative to: random background probes
Direction: higher = stronger binding
All sequences stand within: GCCTAGCAC … GTCTTGATTCGCTTGACGCTGCTG
Sequence	log fluorescence [z-score]
GTAGGTTTCGACTATCGGTTAGTGCTA	5.37
GACGGTTTAGGTTTCGGGACGTGCTAG	3.52
TTAGGTTTCAGTTCCGATTAGTGCTAG	4.24
CAGAATTTACTTTCTACGTCGTGCTAG	0.364
GACGTTATCAGTTTCGAGACGTGCTAG	3.82
TTAGAACTGAGACTGAATTAGTGCTAG	0.174
TTAGGTTTCCGACTGGGTTAGTGCTAG	0.881
GACGGTATCGACGCTGGGGACGTGCTA	-0.481
TTATATCTCAGTCTCGATTAGTGCTAG	1.9
TTTTTTTTTTTTTACTTCGGGTGCTAG	0.886
GGTATTCGGAACTTTTAGCTGTGCTAG	0.322
GACGATTTCGGGTATCGAGAGGTGCTA	0.851
GACGGTATCGGTCTCCGGACGTGCTAG	0.66
TCAAGGTTCTCTTTTATACTGTGCTAG	1.17
TCCACTTTCTTTTGCTTGTTGTGCTAG	1.22
TTAGGACTGGGGACTGGGTAAGTGCTA	-0.532
TTAGATATCGGGGTTCGATTAGTGCTA	0.547
GACGACTTCAGACTGGAGACGTGCTAG	-0.081
TTAGGTATCGGGACTGGGCTAGTGCTA	-0.293

Excerpt of the above (study 2):
Sequence	E-score
ACTCTTAA	-0.226
AATTTCAA	-0.237
CAGCAACG	-0.0986
ATTCGACC	-0.136
ATCGTCGA	-0.0339
GTGATCTA	-0.141
AAACTCAG	-0.249
TGATTGCA	-0.294
